Experimental data of several laboratories.
A part holds a random share of what one study measured.

Block 1 — method: RNA Bind-n-Seq; form: RNA; medium: in vitro; concentration: not given; notes: RNA with constant flanks, ends assumed; reference: input RNA pool; direction: higher = stronger binding; endpoint: bound/input enrichment
Target: RING finger protein unkempt homolog, zinc fingers 1-6, GST-SBP tag (UNK, Homo sapiens, UniProt Q9C0B0, residues 30-357)
Shared flanks, not repeated: GGGAGUUCUACAGUCCGACGAUC … CAACAGAGGAUUGAGCAUCA
Construct (chain): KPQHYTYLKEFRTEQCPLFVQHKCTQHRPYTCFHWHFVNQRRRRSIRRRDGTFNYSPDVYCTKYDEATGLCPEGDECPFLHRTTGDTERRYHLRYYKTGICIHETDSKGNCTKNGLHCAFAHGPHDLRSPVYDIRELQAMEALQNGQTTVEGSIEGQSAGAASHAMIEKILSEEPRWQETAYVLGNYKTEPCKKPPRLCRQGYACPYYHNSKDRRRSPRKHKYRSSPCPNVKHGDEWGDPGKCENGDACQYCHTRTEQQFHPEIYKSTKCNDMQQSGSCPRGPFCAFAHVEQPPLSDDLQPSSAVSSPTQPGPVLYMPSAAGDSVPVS
Strand = AAGUUAGAGAUAAUGUCUACUGGAAAUUUUACCUUUGAGUCAAGUUUUGUGUCAGUGCUUCCGCAUUUUUGAGAAUGUGUUUGAUAUCACAGUGUUUGUAAAUUCGAUGAAAAUGUAUUU; value = 0.265 ratio
Strand = CCUACAAUAAUGAAAACCUACAGGAAUUUUUUUAUUUUUCAUUUUCCCCUUAGGCAUAUUCCGUAUUUUUCCCCCAGGCAGAUCAUUCUGAGUGUGCGAGUGUGUGUGCACAUGUUACAA; value = 12.9 ratio
Strand = GGCUGUGGAAUUAGUCCAGAGAUUCAUUGCGAUGGUGGCCACACCUUCAGACCGCCUUCUGUCCGUAACUACUGCAUCUGUGACAUUACAAAUGGCAAUCACAGUGUGGAUGAGAUGCAA; value = 0.0957 ratio
Strand = CCUGUUUUUGCCUCUCUCUGGCUUCUGGAAAGUGCUCCUUCAUGACAUCCCCUAUCUGCACCGUUCAAGCACCCCAAAUCUGCCCCUUCCUCCUUAAAGACUGGUAGAUGGGAUCAGCUC; value = 0.454 ratio
Strand = GAAGACUUCUGCCGAGAAGGUCUAUCUGAUAUCUUACCCAUUCUGCAUGGUUUAUGCCUGCCGUUGAGCCCAUUGUUGUGAAAUCUGUCCUUGUCCAGUACCUAGAUCUGUGGAGGUCAA; value = 0.269 ratio
Strand = GAAGUCAGGAAAAAGUGUGCUGAGGAGGCCCAGCUGAUUUCUUCCCUGAAAGCAGAAAUAACCCGUCAAGAAUCUCAGAUCUCCAGUUAUGAGGAAGAACUGUUGAAAGCUAGAGAAGAA; value = 0.317 ratio
Strand = CUGAAGUCAGGAAUGUCUCCUGAGCAGAGUAAGACUAAACCUGACUCUAGCAUAUAUCCUUCCGCCGACUCUAAAUCUUUUCUGGUGCAGAGCAGAUUGGAGCCUUCUGAAUUAAAAGAG; value = 0.305 ratio
Strand = AGUUUCAGUUCAAACUUGAGCCCCCAAGAGUGGGUCCAGCUGUGGUUCACAGUUACCCGUUUCCGAAGUGAAGUUUCAUUUUCUGGGUGCCUUUGAAAACUGACUUCAUGUGUUUGUGAC; value = 0.142 ratio
Strand = CUGAGAAAUAACCUCCGGAGCAUAGAGUGGGAUCUAGAGGACCUUGAUGAAACCAUCAGCACCGUUGAAGCAAAUCCUAGAAAAUUUAACCUUGAUGCAACUGAAUUGAGUAUAAGAAAA; value = 1.52 ratio
Strand = GAUACAAAAAGGCUUUCCAAAGAGGAAAAGGGUCGCAGCAGUUGUGGUAGAAAUUUCUGGGUCCGUGGACUCUCUUCUACAACCAGAGCUACAGAUUUGAAGAAUCUUUUCAGCAAAUAU; value = 0.171 ratio
Strand = GAAACAUCUCCAGAGACAUCACUGAUCCAAGAUGAAGUUGCCCUCAAGCUGUCUGCCGAAAUCCCUUGCCCGCCUCCAGUUUCCGAAGCUGAUUUAUCCACGGAUGAGAAGGGUGAGGUC; value = 0.125 ratio

Block 2 — method: RNA Bind-n-Seq; form: RNA; medium: in vitro; concentration: 365 nM; reference: no-protein control; direction: higher = stronger binding; endpoint: RBNS enrichment (R)
Target: RNA binding protein fox-1 homolog 2, RRM domain, GST-SBP tag (RBFOX2, Homo sapiens, UniProt O43251-10, residues 100-194)
Notes: natural RNA segment, single round, ends assumed
Shared flanks, not repeated: GGGAGUUCUACAGUCCGACGAUC … UGGAAUUCUCGGGUGCCAA
Target sequence (chain): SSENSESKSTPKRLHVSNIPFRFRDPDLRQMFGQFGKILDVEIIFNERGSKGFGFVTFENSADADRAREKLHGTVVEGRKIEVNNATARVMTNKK
Strand = UUGCUUCUAUUGUUUGGGCAUUGUGGAUAAUGUACAGAUUUAAAAACAAAUCUUGUUGCUGAUUUGUCCAUUUCUUUCCCUGCACUUUGUUACAUCUGGGAUACAGUCUA; value = 1.78
Strand = CCUGUGUUCUCUUCCCUCUCUCCCAAUAAAAGGGCUCCCAUUAUAAAUGCCAUGUACUUCUCUUGGGAAAAUAGACCCCCUUGCCUAGAGUAAGUUGUUAACUGAGGGCU; value = 0.803
Strand = UUUCCUGGCACGAAAAGUAGCCGCUCUGGUUGAAGCUUUGCUUAUUGUAACAGGCUUUUAUUUCCAGGUAAUAUGUCUUGGAAGACUUAAUUCUGAUUAGAGAUAUAGAU; value = 0.393
Strand = AUGGGAUUCCAUGCCACCCAAGCUGUCAAAACUGCCACUAAGUCGACGAUGGUGGCUCUCAUACUGACCCAGCCCCACAUGUAUAGCAGUGAACAGCAGGGCUAGGCAAG; value = 0.4
Strand = AUAAAAUAAAAUAAAAUAAAACAUCUUGCCCCUAGCUGAGAGAGAGGUCUCUGAAGAGCAGGCUCAGGGAAAAGAUGAGUUUUCAGAGCUGAUGUGAUAGUCAGCUUCUC; value = 0.649
Strand = CAAACCACCCCAUCCUCACAGCGAGCUUAUCCCUACCUCUGCGUGACACUGAGCAGGCAGAUUAGCAAUCUCCCAGGUCAUGCAGCAUCUUGAAACAAAGUAAGAAUUCU; value = 0.734
Strand = AUAAAAGCCAACAAGAGAAACCAUCUCUGACUACCCCUUCCCCCCCUCCCCUUGGAAGUUCCCCAUUGUCACUGAGAACCACCAAAUUUGACUUUCACAUUUGGUCUCAG; value = 0.387
Strand = UGAAAUAUUAAAAGACAGAAUCCAAAGAACGCCUUUAACUCUAGUCUUAUUAGGAUGAUUUUCUAUUAUUAGGUCAAAAAGCUCUACCCAGGCAACAGACACAAUCUGUG; value = 0.31
Strand = UAUUACAAGUACUUGGAUUGUUCCUUAGUCAUUAAAUAGGAUAUAAAUUAGGUUGAGAAGGGGGUAUCACAACCUCAAGAAAAGUGCCACUUAAAGCAUUGCUUUUAGGU; value = 0.64

Block 3 — method: protein binding microarray; form: double-stranded DNA, one strand shown; medium: in vitro; concentration: not given; reference: not given; direction: higher = stronger binding; endpoint: E-score
Target: Histone acetyltransferase KAT6A, winged helix 1, GST fusion (KAT6A, Homo sapiens, UniProt Q92794, residues 1-85)
Notes: 8-mer, flanks averaged, mean of 2 arrays, mostly near background
Construct (chain): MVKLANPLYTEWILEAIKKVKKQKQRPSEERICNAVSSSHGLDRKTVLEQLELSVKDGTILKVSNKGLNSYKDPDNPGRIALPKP
Strand = GGATGCAC; value = -0.0391
Strand = GCTTTTAC; value = 0.125
Strand = GACCATAA; value = -0.0499
Strand = GATCCTCA; value = -0.122
Strand = CGGGTCAG; value = 0.287
Strand = CCGAATGA; value = 0.0255
Strand = TCCCCGCA; value = 0.304
Strand = AGAGACTC; value = -0.186
Strand = CCGTGAAC; value = 0.168
Strand = GTCCCGGA; value = 0.195
Strand = AATATCGA; value = -0.19
Strand = ACAGCCAG; value = -0.116
Strand = GTGATACA; value = -0.0823
Strand = AGGAAGTC; value = -0.162
Strand = GCCATTCC; value = 0.0287
Strand = GCCTTAGC; value = 0.0035
Strand = CCGTGTGA; value = 0.137
Strand = GACAACGC; value = 0.198
Strand = AGACTATA; value = -0.0312
Strand = AGTCCGGC; value = 0.288
Strand = AAATCCTC; value = -0.181
Strand = ACCGGTTG; value = -0.0524
Strand = ACCATGGA; value = -0.155
Strand = ACCAACAG; value = -0.0407
Strand = GAGGCATC; value = -0.0498

Block 4 — method: protein-binding microarray; form: double-stranded DNA, one strand shown; medium: in vitro; concentration: 250 nM; notes: 60-bp whole probe; with: salmon DNA 0.4 mg/ml; reference: random background probes; direction: higher = stronger binding; endpoint: log fluorescence; shared flanks, not repeated: GCCTAGCAC … GTCTTGATTCGCTTGACGCTGCTG
Target: Interferon regulatory factor 5, full length, phosphomimetic (IRF5, Homo sapiens, UniProt Q13568-2, residues 1-514, K96S/S451D/S453D/S456D/S462D)
Strand = GACGGCCTGGACTATCGGGACGTGCTA; value = 0.459 z-score
Strand = TCATGGTCCTCTCTCTAACTGTGCTAG; value = -0.128 z-score
Strand = GAAGAACTGAGTCTCGAGACGTGCTAG; value = -0.3 z-score
Strand = TCAGGTCTCCCTTGAGGTTTGTGCTAG; value = -0.49 z-score
Strand = TTGGGTTTCGGGTATCGGTTAGTGCTA; value = 8.7 z-score
Strand = TAAGGACTGGGTTTCGGTTAGTGCTAG; value = 8.28 z-score
Strand = CCCAAGATTGCCGTTTCCTAAGTGCTA; value = -0.239 z-score
Strand = GACGGTTTCCTTTTCGTGACGTGCTAG; value = 1.4 z-score
Strand = TTAGAAATGAGTATCGATTAGTGCTAG; value = 7.23 z-score
Strand = AATTCTTTGCTCATTTTTCAGGTGCTA; value = 0.932 z-score
Strand = TTAGGTTTGGACACTGGGTTAGTGCTA; value = -0.0949 z-score
Strand = TCATTTTTCTGCTTAGAACTGTGCTAG; value = 1.62 z-score
Strand = GACGGCCTCCTTATCCTGACGTGCTAG; value = -0.438 z-score
Strand = TTAGGTTTCGGGACTGAGTTAGTGCTA; value = 6.08 z-score
Strand = TTTGGACTGCTTATCCTTTAGTGCTAG; value = -0.102 z-score
Strand = TTAGGTCTCTGTTTCGGTTAGTGCTAG; value = 8.28 z-score
Strand = TTAGGTAGCCTTTTCCTTTAGTGCTAG; value = -0.0819 z-score
Strand = TTAGATATCGGGACTTGATTAGTGCTA; value = 1.17 z-score
Strand = TTTGGTTTCGGTTCCGGTTAGTGCTAG; value = 11.2 z-score
Strand = TCAGTTTTCAGTCCTGGACTGTGCTAG; value = 1.66 z-score
Strand = CTTCATGTTTTTTTCTACTTGTGCTAG; value = 1.48 z-score
Strand = TTAGGTTTCGACTACCGGTTAGTGCTA; value = 7.8 z-score
Strand = TTAGAACTGGGGACTCGATTAGTGCTA; value = -0.101 z-score
Strand = GCCGGTCTCCTACTGCTGACGTGCTAG; value = -0.177 z-score
Strand = TCATCCCTCGGGTTGCGGACTGTGCTA; value = -0.197 z-score
